Measurements gathered from unrelated publications.
Compare with care: the assays were run in different laboratories. Numbers after ± are the reported error. Converted amounts (≈) assume the structure as drawn.

| Structure (SMILES) | tested on | test | system | conditions | scale | measurement | value |
| --- | --- | --- | --- | --- | --- | --- | --- |
| CCCCC/C=C/C(=O)CCc1ccc(O)c(OC)c1 | mouse mAb 1-G12 | antibody binding, indirect competitive ELISA |  | added: coating antigen 2-OVA |  | IC50 | > 4000 ng/mL |
| COc1cc(CNC(=O)C[C@H](C)CCC=C(C)C)ccc1O | SF-295 CNS cancer cells | SRB |  | 10 µM, 48 h |  | growth percent | 103% |
| CC(C)(O)c1ccc(N2Cc3c(ccnc3-c3ccc(F)cc3OCC(F)(F)F)C2=O)cc1 |  |  | Gaucher disease mouse model, brain | 10 mg/kg, 2 months once daily | relative to: vehicle | glucosylceramide level | 58 ± 2% |
| COc1cc(CNC(=O)C[C@H](C)CCC=C(C)C)ccc1OCc1cn(-c2ccc(F)cc2)nn1 | SR leukaemia cells | SRB |  | 10 µM, 48 h |  | growth percent | 68.9% |
| Cc1nc(C)c(C=[N+]([O-])C(C)(C)C)nc1C |  | Western blot, refers to: PGC-1α | primary midbrain neurons, rat | 300 µM, added: 20 µM MPP+ |  | protein level increase | 43.3% |
| Fc1ccc2c(c1)c1nc3ccc(Br)cc3c-1cn2Cc1cn(-c2ccccc2I)nn1 | Giardia duodenalis trophozoites | UHPLC-Q-TOF-MS, refers to: PI(13:0/12:0) |  | IC50, 0.2033 h | relative to: 0.25% DMSO | fold change | -26 |
| COc1cc(CCC(C)=O)ccc1O | mouse mAb 1-G12 | antibody binding, indirect competitive ELISA |  | added: coating antigen 5-OVA |  | IC50 | 114 ng/mL (≈ 0.587 µM) |
| COc1cc(CNC(=O)C[C@H](C)CCC=C(C)C)ccc1OCc1cn(-c2cccc(Cl)c2)nn1 | UACC-257 melanoma cells | SRB |  | 10 µM, 48 h |  | growth percent | 72.1% |
| CC(=O)[O-].O.O.O.O.[Mn+2].[O-]c1ccc(Br)cc1C=NCCN1CCOCC1 | Shigella flexneri |  |  | 20 µL of 100 µM per disc |  | inhibition zone diameter | 20 mm |
| COC1=CC(c2ccc[nH]2)=NC1=Cc1[nH]c(Cc2ccc(Cl)cc2)cc1Cc1ccc(Cl)cc1 | Plasmodium yoelii |  | Kenya strain MRA-428, mice | oral, day 5, dosed 4 days |  | ED50 | 2.8 mg/kg/day |

For quick reference, copied from above:
| Structure (SMILES) | tested on | test | system | conditions | scale | measurement | value |
| --- | --- | --- | --- | --- | --- | --- | --- |
| Fc1ccc2c(c1)c1nc3ccc(Br)cc3c-1cn2Cc1cn(-c2ccccc2I)nn1 | Giardia duodenalis trophozoites | UHPLC-Q-TOF-MS, refers to: PI(13:0/12:0) |  | IC50, 0.2033 h | relative to: 0.25% DMSO | fold change | -26 |
